Assay results of several laboratories.
Compare with care: the assays were run in different laboratories.
Target: Serine/threonine-protein kinase MAK (MAK, Homo sapiens, UniProt P20794)

The remaining binding of `COc1c(Cl)cccc1Nc1c(-c2ccncc2C#C[C@@]2(C)CCCN2C(=O)/C=C/CN(C)C)[nH]c2c1C(=O)NCC2` is reported as 100% (binding, competition with immobilised ligand; 3 µM).
The remaining binding of `CCN1CCN(Cc2ccc(C(=O)Nc3ccc(C)c(NCc4cnc5[nH]ccc5c4OC)c3)cc2C(F)(F)F)CC1` is reported as 80% (binding, competition with immobilised ligand; 1 µM).
The remaining binding of `C=CC(=O)N1CCCC(n2c(=O)c3ncccc3n(Cc3ccc(Oc4ccccc4)cc3)c2=O)C1` (stereo not shown) is reported as 100% (cell-free assay, competition with immobilised ligand; 1 µM).
`O=C(Cc1ccc(OCc2ccccc2)cc1)NC1(C(=O)O)CCN(C(=O)c2ccc(-c3cccc(Cl)c3)cc2)CC1`: “activity vs control” 97% (enzyme activity, inhibitor; 10 µM).
With `Cc1ccc(-c2c(/C=C(\C#N)C(=O)NC(C)C)n(CCCO)c3ncnc(N)c23)cc1` the remaining binding was 100% (cell-free assay, competition with immobilised ligand; 1 µM).
`C=CC(=O)N1CCc2ccc(-n3c(=O)ccc4cnc5ccc(-c6cnn(C)c6)cc5c43)cc21` has a remaining binding of 100% (KINOMEscan; 1 µM; relative to: DMSO control).
For `CNC1C[S+]2CC[S+]3CC[S+](C1)[Ru-4]321([N]=C=S)[n]2c3ccc(OC)cc3c3c4c(c5cc(F)c[n+]1c5c32)C(=O)NC4=O` (stereo not shown), the remaining binding was 51% (KinomeScan; 0.1 µM; relative to: untreated).
For `Nc1ncc(-c2cc(-c3cnn(CC(F)(F)F)c3)ncc2F)nc1C(=O)NC1CNCC(F)C1` (stereo not shown), the remaining activity was 96.7% (enzyme activity; 1 µM; relative to: DMSO control).
For `CC(C)=CC1OC(C)(C)C2C=C3C(=O)C(Cl)=CC(O)C3C3C(O)C4OC4C(=O)C132` (stereo not shown), the remaining binding was 100% (cell-free assay, competition with immobilised ligand; 10 µM).
For `CNC(=O)C1CCN(c2cc(C)c(F)cc2NC(=O)c2ccc(-c3cc(O)ccc3C)c(C)c2)CC1`, the remaining binding was 96% (binding, competition with immobilised ligand; 1 µM).
With `Cc1cnc2nc1Nc1cccc(c1)COC/C=C/COCc1cc(ccc1OCCN1CCOCC1)N2` the remaining binding was 88% (binding; 0.1 µM).
With `CN1CC[C@@H](COc2cnc(C#N)cc2-c2ccn3nc(NC(=O)C4CC4)cc3c2)C1` the inhibition was -13% (enzyme activity, inhibitor; 1 µM).
`COc1cc(Nc2nccc(-c3cnn4nc(OC)ccc34)n2)cc(C(F)(F)F)c1` has a remaining binding of 100% (binding, competition with immobilised ligand; 1 µM).
`CCn1cc(C(=O)O)c(=O)c2c(N)c(F)c(NC3CCCCC3)cc21` gave an inhibition of 5.5% (kinase activity; 0.1 µM, together with: ATP at Km).
For `COc1cc(Nc2nc(C)cc(-c3cnn4nc(OC)ccc34)n2)cc(C(F)(F)F)c1`, the remaining activity was 84% (inhibitor; 1 µM; relative to: control).
For `Nc1ncc2c(n1)-c1c([nH]c3ccc(C4=CCOCC4)cc13)CCC2`, the remaining binding was 99% (binding, competition with immobilised ligand; 1 µM).

Repeated from above:
The remaining binding of `C=CC(=O)N1CCCC(n2c(=O)c3ncccc3n(Cc3ccc(Oc4ccccc4)cc3)c2=O)C1` (stereo not shown) is reported as 100% (cell-free assay, competition with immobilised ligand; 1 µM).
`O=C(Cc1ccc(OCc2ccccc2)cc1)NC1(C(=O)O)CCN(C(=O)c2ccc(-c3cccc(Cl)c3)cc2)CC1`: “activity vs control” 97% (enzyme activity, inhibitor; 10 µM).
